Measured values pooled from the literature.
A part holds a random share of what one study measured.
Chain of UniProt P61075 (whole entry, looked up): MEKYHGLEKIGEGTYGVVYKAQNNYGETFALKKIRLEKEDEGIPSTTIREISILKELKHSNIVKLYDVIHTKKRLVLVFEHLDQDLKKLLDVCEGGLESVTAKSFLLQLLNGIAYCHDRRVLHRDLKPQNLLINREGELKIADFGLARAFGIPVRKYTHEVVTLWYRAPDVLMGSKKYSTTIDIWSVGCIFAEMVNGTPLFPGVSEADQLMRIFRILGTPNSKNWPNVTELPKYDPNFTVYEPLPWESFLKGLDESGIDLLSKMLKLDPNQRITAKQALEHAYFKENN
Chain of UniProt P08173 (whole entry, looked up): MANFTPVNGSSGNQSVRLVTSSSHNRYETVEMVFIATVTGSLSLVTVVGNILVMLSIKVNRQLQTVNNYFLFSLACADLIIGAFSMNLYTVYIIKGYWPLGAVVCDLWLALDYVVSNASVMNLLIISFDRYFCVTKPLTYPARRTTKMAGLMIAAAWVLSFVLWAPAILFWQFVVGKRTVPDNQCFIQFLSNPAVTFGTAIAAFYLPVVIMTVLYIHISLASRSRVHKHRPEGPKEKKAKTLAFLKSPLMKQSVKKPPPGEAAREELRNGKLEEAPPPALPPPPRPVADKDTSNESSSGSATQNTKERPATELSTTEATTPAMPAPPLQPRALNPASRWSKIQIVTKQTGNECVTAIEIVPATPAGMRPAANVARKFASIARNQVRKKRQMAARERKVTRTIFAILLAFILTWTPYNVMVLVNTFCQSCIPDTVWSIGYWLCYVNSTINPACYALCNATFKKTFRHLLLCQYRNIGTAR

Sample 1
Target: CRBN/Zinc finger protein Helios (Homo sapiens, UniProt Q96SW2+Q9UKS7)
Chain of UniProt Q96SW2 (whole entry, looked up): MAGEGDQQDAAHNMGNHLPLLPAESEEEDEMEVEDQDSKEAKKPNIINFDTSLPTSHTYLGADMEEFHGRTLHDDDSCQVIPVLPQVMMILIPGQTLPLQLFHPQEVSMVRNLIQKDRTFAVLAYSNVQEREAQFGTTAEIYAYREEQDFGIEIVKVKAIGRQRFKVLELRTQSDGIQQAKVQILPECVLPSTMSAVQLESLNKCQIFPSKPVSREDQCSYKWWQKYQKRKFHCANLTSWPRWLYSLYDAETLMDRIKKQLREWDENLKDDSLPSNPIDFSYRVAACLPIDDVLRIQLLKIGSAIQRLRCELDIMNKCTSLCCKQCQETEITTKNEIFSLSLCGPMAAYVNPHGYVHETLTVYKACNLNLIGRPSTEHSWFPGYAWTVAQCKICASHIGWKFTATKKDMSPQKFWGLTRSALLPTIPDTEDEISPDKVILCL
Chain of UniProt Q9UKS7 (whole entry, looked up): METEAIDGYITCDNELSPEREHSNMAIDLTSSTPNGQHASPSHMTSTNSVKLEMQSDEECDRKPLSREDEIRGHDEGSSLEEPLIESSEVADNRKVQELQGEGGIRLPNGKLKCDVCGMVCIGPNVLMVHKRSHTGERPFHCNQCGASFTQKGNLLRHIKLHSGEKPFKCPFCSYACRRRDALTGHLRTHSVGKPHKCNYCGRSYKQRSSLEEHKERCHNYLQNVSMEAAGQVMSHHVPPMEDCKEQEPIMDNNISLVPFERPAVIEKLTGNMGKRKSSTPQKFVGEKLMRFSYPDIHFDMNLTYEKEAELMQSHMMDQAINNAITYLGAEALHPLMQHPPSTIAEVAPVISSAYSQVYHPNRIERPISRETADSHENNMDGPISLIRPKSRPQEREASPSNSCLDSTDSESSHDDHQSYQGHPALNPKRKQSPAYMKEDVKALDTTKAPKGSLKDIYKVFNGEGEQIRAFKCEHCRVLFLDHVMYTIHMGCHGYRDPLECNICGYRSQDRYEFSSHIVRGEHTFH
Mode: degrader
Method: HiBiT
Cell line: HEK293
Tested at: 1111.11 nM
SMILES | protein remaining [%]
O=C1CCC(N2Cc3c(ccc4c3OCC43CCN(Cc4ccccc4)CC3(F)F)C2=O)C(=O)N1 (stereo not shown) | 37.6
O=C1CCC(N2Cc3c(ccc4c3OCC43CCN(Cc4ccccn4)CC3)C2=O)C(=O)N1 (stereo not shown) | 39
O=C1CCC(N2Cc3c(ccc4c3OCC43CCCN(Cc4ccccc4)CC3)C2=O)C(=O)N1 (stereo not shown) | 82.6
O=C1CCC(N2Cc3c(ccc4c3OCC43CCN(Cc4ccccc4)C3)C2=O)C(=O)N1 (stereo not shown) | 71.9
O=C1CCC(N2Cc3c(ccc4c3OCC43CCN(Cc4ccsc4)CC3)C2=O)C(=O)N1 (stereo not shown) | 20.3
O=C1CCC(N2Cc3c(ccc4c3OCC43CCN(CC4CCCCC4)CC3)C2=O)C(=O)N1 (stereo not shown) | 43.6

Sample 2
Target: DNA polymerase theta, ATPase domain (POLQ, Homo sapiens, UniProt O75417)
Chain of UniProt O75417 (whole entry, unmodified, looked up): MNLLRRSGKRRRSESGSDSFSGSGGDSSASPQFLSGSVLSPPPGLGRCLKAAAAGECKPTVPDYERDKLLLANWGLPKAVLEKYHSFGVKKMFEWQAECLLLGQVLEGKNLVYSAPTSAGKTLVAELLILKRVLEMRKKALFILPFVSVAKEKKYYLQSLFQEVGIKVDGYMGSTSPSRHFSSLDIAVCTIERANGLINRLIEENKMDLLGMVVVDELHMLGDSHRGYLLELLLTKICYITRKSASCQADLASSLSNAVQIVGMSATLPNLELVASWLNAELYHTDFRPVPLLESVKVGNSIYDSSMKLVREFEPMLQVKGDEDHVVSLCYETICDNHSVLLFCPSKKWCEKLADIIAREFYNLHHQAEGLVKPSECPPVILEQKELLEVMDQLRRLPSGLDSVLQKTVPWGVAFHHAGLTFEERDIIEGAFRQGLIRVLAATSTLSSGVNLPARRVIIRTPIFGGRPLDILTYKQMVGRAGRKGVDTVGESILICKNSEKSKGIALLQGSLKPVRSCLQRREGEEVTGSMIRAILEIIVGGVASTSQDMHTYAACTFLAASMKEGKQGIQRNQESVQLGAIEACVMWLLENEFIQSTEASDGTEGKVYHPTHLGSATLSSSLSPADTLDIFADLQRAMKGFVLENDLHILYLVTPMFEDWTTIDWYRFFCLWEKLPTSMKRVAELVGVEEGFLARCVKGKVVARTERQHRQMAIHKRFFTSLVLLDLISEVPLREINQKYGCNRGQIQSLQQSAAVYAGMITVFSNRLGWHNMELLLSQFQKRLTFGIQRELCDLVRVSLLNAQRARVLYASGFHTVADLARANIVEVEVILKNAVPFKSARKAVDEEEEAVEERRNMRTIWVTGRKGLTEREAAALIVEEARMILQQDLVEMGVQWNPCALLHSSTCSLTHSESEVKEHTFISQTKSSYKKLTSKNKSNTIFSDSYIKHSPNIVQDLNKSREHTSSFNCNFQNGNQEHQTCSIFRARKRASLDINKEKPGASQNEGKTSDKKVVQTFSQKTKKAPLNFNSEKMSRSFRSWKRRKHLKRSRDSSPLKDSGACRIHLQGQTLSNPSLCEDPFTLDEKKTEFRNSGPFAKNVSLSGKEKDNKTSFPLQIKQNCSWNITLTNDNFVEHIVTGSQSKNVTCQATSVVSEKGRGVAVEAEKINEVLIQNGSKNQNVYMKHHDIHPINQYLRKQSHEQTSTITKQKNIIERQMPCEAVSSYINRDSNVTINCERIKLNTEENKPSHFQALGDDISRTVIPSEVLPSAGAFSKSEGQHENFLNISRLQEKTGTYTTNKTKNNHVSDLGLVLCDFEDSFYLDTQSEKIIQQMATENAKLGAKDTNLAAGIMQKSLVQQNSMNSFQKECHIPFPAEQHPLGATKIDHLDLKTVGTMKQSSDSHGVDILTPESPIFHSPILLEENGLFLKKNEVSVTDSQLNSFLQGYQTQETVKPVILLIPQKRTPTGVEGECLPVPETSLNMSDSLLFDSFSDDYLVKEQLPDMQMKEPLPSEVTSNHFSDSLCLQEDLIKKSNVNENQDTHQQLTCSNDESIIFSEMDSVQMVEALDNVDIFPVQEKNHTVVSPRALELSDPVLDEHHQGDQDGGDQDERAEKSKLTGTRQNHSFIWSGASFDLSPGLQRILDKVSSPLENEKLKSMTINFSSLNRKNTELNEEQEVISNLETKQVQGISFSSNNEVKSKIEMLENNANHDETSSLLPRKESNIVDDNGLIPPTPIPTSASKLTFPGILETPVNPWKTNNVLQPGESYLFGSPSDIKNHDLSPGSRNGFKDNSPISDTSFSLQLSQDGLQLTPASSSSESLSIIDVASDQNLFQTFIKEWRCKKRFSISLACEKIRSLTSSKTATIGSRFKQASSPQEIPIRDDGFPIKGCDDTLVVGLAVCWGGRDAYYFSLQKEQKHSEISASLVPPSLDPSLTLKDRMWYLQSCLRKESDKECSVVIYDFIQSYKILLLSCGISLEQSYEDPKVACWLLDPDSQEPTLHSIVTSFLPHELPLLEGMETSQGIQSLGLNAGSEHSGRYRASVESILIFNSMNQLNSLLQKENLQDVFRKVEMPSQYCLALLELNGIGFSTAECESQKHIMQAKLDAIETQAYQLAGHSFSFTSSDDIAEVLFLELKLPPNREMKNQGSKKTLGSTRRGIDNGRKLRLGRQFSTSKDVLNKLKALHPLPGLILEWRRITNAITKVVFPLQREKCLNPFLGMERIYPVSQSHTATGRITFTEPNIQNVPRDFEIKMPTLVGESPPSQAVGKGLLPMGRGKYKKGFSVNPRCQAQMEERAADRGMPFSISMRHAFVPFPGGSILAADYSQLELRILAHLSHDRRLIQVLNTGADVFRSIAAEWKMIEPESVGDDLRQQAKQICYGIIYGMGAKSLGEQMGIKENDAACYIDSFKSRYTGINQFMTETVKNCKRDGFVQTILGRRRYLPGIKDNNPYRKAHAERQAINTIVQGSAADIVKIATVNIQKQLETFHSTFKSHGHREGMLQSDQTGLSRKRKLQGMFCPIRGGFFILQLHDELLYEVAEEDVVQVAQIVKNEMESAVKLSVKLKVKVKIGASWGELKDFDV
Observed: enzyme activity
Mode: inhibitor
Tested at: 77 µM
Baseline: untreated
Compound | remaining activity [%]
CC(C)[C@]12O[C@H]1[C@@H]1O[C@]13[C@]1(O[C@H]1C[C@H]1C4=C(CC[C@@]13C)C(=O)OC4)[C@@H]2O | 95.9
CCN1C[C@]2(C)CC[C@H](O)[C@]34C1[C@@H](C[C@H]23)[C@@]1(O)C[C@H](OC)[C@H]2C[C@@H]4[C@@H]1[C@H]2O | 103
c1ccc(C2CC2)c(OCC2=NCCN2)c1 | 102
CCCN(CCC)CCc1ccc(O)c(O)c1 | 99.9
CC(=O)[C@H]1CC[C@H]2[C@@H]3CC[C@H]4C[C@H](O)CC[C@]4(C)[C@H]3CC[C@]12C | 97.9
COc1ccc(CC2c3cc(OC)c(OC)cc3CCN2C)cc1OC (racemic) | 99.4
Cc1cccc(Cc2c[nH]cn2)c1C | 90.9

Sample 3
Target: Calcium/calmodulin-dependent protein kinase type II subunit alpha (CAMK2A, Homo sapiens, UniProt Q9UQM7)
Chain of UniProt Q9UQM7 (whole entry, looked up): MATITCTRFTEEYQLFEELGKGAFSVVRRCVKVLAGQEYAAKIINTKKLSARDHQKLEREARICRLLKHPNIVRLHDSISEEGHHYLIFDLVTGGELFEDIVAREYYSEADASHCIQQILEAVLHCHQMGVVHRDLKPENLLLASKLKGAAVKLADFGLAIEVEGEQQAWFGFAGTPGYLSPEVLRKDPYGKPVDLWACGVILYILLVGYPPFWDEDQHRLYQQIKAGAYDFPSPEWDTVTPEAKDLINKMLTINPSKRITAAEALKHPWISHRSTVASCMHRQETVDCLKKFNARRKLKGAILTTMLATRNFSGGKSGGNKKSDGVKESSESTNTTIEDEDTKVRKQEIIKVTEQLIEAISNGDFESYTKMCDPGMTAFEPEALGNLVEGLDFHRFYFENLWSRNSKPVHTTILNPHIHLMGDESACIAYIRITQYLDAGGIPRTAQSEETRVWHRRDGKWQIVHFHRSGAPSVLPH
Observed: enzyme activity
Mode: inhibitor
Tested at: 10 µM
SMILES | inhibition [%]
COc1ccc2c(c1OC)C(OC)N(C)c1c-2ccc2cc3c(cc12)OCO3 (stereo not shown) | -17
C[C@@H]1CC[C@@]2(OC1)O[C@H]1C[C@H]3[C@@H]4CC=C5C[C@@H](O[C@@H]6O[C@H](CO)[C@@H](O[C@@H]7O[C@@H](C)[C@H](O[C@@H]8O[C@@H](C)[C@H](O)[C@@H](O)[C@H]8O)[C@@H](O)[C@H]7O)[C@H](O)[C@H]6O[C@@H]6O[C@@H](C)[C@H](O)[C@@H](O)[C@H]6O)CC[C@]5(C)[C@H]4CC[C@]3(C)[C@H]1[C@@H]2C | 1
CN(C)NC(=O)CCC(=O)O | -1

Mixed results
SMILES | target | assay | setting | measurement | value
Nc1c(C(=O)NCc2ccc(C(=O)NCCCC3CCCCC3)cc2)cnn1-c1ccccc1 | CRK2 (Plasmodium falciparum, UniProt P61075) | cell-free assay, competition with immobilised ligand | 0.1 µM | remaining binding | 100%
CNC(=O)c1cc(C(=O)NC2CC2)cn(Cc2ccccc2)c1=O | CHRM4 (Homo sapiens, UniProt P08173) | binding, radioligand binding | 10 µM | inhibition | 0.52%
CN(C)CC#Cc1ccc(OCCCc2sc(N3CCc4cccc(C(=O)Nc5nc6ccccc6s5)c4C3)nc2C(=O)O)c(F)c1 | CDPK1 (Plasmodium falciparum, UniProt P62344) | cell-free assay, competition with immobilised ligand | 1 µM | remaining binding | 100%

A few entries again (sample 2):
Compound | remaining activity [%]
CCCN(CCC)CCc1ccc(O)c(O)c1 | 99.9
COc1ccc(CC2c3cc(OC)c(OC)cc3CCN2C)cc1OC (racemic) | 99.4
c1ccc(C2CC2)c(OCC2=NCCN2)c1 | 102
